{"data": "Published values gathered from unrelated publications", "note": "Lines come from different studies, so protocols differ. “And” joins repeats or separate records; there may be more than shown. Numbers after ± are the reported error.", "sequence of UniProt P51617 (whole entry, looked up)": "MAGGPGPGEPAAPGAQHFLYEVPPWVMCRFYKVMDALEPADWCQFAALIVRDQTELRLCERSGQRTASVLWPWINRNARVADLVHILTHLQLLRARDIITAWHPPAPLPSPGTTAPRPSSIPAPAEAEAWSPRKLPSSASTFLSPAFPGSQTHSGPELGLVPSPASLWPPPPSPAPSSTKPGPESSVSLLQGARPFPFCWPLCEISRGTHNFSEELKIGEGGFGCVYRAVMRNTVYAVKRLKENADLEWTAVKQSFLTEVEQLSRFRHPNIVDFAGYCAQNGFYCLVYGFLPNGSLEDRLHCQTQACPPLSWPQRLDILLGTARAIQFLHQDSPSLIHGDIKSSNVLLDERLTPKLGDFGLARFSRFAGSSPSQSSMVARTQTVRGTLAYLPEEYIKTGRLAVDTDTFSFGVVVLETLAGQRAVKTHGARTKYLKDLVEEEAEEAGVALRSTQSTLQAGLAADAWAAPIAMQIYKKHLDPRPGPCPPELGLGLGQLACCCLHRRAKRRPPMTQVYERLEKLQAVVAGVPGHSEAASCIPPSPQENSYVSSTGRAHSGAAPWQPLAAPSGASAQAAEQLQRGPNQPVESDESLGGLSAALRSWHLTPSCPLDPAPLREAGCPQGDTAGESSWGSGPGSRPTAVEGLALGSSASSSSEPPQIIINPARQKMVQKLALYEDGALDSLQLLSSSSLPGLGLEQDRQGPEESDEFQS", "sequence of UniProt P08183 (whole entry, looked up)": "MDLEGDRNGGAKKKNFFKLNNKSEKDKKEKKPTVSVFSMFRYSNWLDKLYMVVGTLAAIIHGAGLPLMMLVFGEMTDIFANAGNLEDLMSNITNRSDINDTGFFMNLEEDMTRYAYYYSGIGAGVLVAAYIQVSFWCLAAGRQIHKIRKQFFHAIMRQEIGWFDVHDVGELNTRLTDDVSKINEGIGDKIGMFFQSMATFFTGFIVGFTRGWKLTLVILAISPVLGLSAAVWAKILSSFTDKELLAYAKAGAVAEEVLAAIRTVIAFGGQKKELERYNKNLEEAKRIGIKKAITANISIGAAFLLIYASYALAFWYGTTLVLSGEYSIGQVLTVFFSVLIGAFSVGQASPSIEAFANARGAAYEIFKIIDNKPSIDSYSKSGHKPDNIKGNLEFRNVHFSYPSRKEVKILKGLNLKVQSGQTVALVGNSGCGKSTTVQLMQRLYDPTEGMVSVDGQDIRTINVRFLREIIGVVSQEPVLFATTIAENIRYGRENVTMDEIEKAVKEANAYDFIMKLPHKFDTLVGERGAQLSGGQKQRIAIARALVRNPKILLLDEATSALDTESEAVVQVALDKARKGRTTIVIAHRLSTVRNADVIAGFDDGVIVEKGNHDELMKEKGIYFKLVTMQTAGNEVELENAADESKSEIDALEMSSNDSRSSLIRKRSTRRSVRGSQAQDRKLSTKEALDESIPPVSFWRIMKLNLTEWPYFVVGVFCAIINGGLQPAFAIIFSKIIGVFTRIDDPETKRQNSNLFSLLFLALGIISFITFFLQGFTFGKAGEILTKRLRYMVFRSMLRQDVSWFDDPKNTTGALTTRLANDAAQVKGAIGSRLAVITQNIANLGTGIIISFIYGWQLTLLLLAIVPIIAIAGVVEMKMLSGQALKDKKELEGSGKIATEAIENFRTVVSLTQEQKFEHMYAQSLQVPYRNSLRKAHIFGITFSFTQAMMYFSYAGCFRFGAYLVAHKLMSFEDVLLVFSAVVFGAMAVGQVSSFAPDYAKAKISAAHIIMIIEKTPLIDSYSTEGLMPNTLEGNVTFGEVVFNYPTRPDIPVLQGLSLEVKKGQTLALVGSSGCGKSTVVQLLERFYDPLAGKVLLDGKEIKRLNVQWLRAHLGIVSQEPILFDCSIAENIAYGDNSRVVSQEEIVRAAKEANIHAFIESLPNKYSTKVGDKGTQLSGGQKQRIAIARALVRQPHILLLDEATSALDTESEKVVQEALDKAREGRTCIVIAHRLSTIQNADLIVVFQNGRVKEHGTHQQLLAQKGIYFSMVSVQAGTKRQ", "sequence of UniProt O43613 (whole entry, looked up)": "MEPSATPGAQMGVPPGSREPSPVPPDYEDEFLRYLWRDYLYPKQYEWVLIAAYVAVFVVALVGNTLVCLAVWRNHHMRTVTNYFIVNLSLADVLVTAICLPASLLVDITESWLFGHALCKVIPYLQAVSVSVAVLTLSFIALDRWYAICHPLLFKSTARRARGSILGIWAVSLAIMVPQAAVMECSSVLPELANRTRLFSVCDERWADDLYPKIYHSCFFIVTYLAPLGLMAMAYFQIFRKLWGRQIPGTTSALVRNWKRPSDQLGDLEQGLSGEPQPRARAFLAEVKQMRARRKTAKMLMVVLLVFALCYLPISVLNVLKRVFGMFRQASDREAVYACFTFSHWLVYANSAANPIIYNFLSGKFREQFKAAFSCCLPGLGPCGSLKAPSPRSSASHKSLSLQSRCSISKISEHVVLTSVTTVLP"}
{"SMILES": "CC(=O)OC[C@H]1O[C@@H](Oc2cc(O)cc3cc4oc(C)cc(=O)c4c(O)c23)[C@H](O)[C@@H](O)[C@@H]1O", "tested on": "HK-2 co-cultured with HepaRG", "test": "MTT", "conditions": "33.33 µM, 24 h", "scale": "baseline: untreated control", "measurement": "cell viability", "result": "132 ± 12%"}
{"SMILES": "OC(CCN1CC=C(c2ccc(F)cc2)CC1)c1ccc(F)c2ccccc12 (stereo not shown)", "tested on": "Salmonella typhimurium", "test": "genotoxicity, SOS/umu test", "system": "TA1535/pSK1002", "conditions": "0.004 mg/mL, 4 h, with S9, full range", "measurement": "induction factor", "result": 1}
{"SMILES": "O=C1c2ccccc2C(=O)c2ccccc21", "tested on": "HepaRG co-cultured with HK-2", "test": "MTT", "conditions": "66.67 µM, 48 h", "scale": "baseline: untreated control", "measurement": "cell viability", "result": "65.1 ± 5.75%"}
{"SMILES": "C[C@H]1CN(c2n[nH]c3nc(N[C@H]4CC[C@H](NS(=O)(=O)CCC(F)(F)F)CC4)ncc23)CCO1", "tested on": "Interleukin-1 receptor-associated kinase 1 (IRAK1, Homo sapiens, UniProt P51617)", "test": "inhibitor, Kinobeads competition profiling", "conditions": "0.8 µM", "scale": "baseline: vehicle", "measurement": "relative abundance", "result": 1.11}
{"SMILES": "COc1cc2ncnc(Nc3cccc(Cl)c3)c2cc1OC", "tested on": "HaCaT", "conditions": "0.046 µM, 60 h", "measurement": "viability", "result": "102% and 99.3% and 105%"}
{"SMILES": "CC(=O)N1CCC(C(=O)N2CCN3C(=O)c4cc(-c5ccccc5)ccc4NC(=O)C3C2)CC1 (stereo not shown)", "tested on": "Salmonella typhimurium", "system": "TA98", "conditions": "5.0 µg/plate", "scale": "baseline: vehicle", "measurement": "fold increase in revertants", "result": 1.1}
{"SMILES": "COc1cccc(-c2n[nH]c(SCc3ccccn3)n2)c1OC", "tested on": "Salmonella typhimurium", "test": "Ames test, preincubation", "system": "TA1537", "conditions": "1.0 mg/plate, with rat liver S9", "measurement": "revertant colonies per plate", "result": 7}
{"SMILES": "COc1cc(Nc2ncc(F)c(Nc3ccc4c(n3)NC(=O)C(C)(C)O4)n2)cc(OC)c1OC", "tested on": "Orexin/Hypocretin receptor type 1 (HCRTR1, Homo sapiens, UniProt O43613)", "measurement": "IC50", "result": "> 10 µM"}
{"SMILES": "[Cl-].[Cl-].[Pt+2].[Ru+2].c1ccc(-c2nc3cc4ccccc4cc3nc2-c2ccccn2)nc1.c1cnc2c(c1)ccc1cccnc12.c1cnc2c(c1)ccc1cccnc12", "tested on": "Danio rerio", "system": "embryos", "conditions": "75 µM, 48 h", "measurement": "hatching rate", "result": "3.33 ± 3.7%"}
{"SMILES": "Cc1cc2c(c(O)c1O)C(=O)c1c(O)cc(O)cc1C2=O", "tested on": "HepaRG co-cultured with HK-2", "test": "MTT", "conditions": "33.33 µM, 48 h", "scale": "baseline: untreated control", "measurement": "cell viability", "result": "88.3 ± 15.3%"}
{"SMILES": "O=c1ccc2ccccc2o1", "tested on": "NHEK", "system": "keratinocyte growth medium", "conditions": "concentration not given, 24 h, ER stress panel", "measurement": "CHOP induction, chance of response", "result": "20.8%"}
{"SMILES": "CC(C)CC(=O)OC[C@H]1O[C@@](C#N)(c2ccc3c(N)ncnn23)[C@H](O)[C@@H]1O", "tested on": "ATP-dependent translocase ABCB1 (ABCB1, Homo sapiens, UniProt P08183)", "test": "apical to basolateral transport", "system": "Caco-2", "conditions": "90 µM, 2 h, with: verapamil 100 µM", "measurement": "recovery", "result": "70%"}
{"SMILES": "Cc1cc(C(=O)NC(C)(C)COc2cccc3c2C(N)=NS(=O)(=O)N3)cc(C)n1", "tested on": "Escherichia coli", "test": "Ames test, initial", "system": "WP2 uvrA", "conditions": "150 µg/plate", "scale": "baseline: solvent control", "measurement": "revertant ratio", "result": 1.2}
{"note": "For quick reference, copied from above:"}
{"SMILES": "COc1cc2ncnc(Nc3cccc(Cl)c3)c2cc1OC", "tested on": "HaCaT", "conditions": "0.046 µM, 60 h", "measurement": "viability", "result": "102% and 99.3% and 105%"}
